Published values gathered from unrelated publications.
Compare with care: the assays were run in different laboratories. Numbers after ± are the reported error.
B1: UGT1A9 (Homo sapiens, UniProt O60656); chain GKLLVVPMDGSHWFTMRSVVEKLILRGHEVVVVMPEVSWQLGRSLNCTVKTYSTSYTLEDLDREFKAFAHAQWKAQVRSIYSLLMGSYNDIFDLFFSNCRSLFKDKKLVEYLKESSFDAVFLDPFDNCGLIVAKYFSLPSVVFARGILCHYLEEGAQCPAPLSYVPRILLGFSDAMTFKERVRNHIMHLEEHLLCHRFFKNALEIASEILQTPVTEYDLYSHTSIWLLRTDFVLDYPKPVMPNMIFIGGINCHQGKPLPMEFEAYINASGEHGIVVFSLGSMVSEIPEKKAMAIADALGKIPQTVLWRYTGTRPSNLANNTILVKWLPQNDLLGHPMTRAFITHAGSHGVYESICNGVPMVMMPLFGDQMDNAKRMETKGAGVTLNVLEMTSEDLENALKAVINDKSYKENIMRLSSLHKDRPVEPLDLAVFWVEFVMRHKGAPHLRPAAHDLTWYQYHSLDVIGFLLAVVLTVAFITFKCCAYGYRKCLGKKGRVKKAHKSKTH

Cc1cccc(N(O)N=Nc2ccc(S(=O)(=O)Nc3onc(C)c3C)cc2)c1  inhibition (paw oedema; rat, carrageenan oedema; oral, 100 mg/kg, 2 h after carrageenan; baseline: vehicle): 29.4%
[2H]c1c([2H])c([2H])c2c(C([2H])([2H])[2H])c3c(c([2H])c([2H])c4c([2H])c([2H])c([2H])c([2H])c43)c(C([2H])([2H])[2H])c2c1[2H]  minimal protective dose (adrenal haemorrhage prevention; rat; oral, added: 7,12-DMBA 5 mg i.v.): 2 mg
c1cc(-c2cnn3cc(-c4ccc(OCCN5CCCCC5)cc4)cnc23)ccn1  EC100 dorsalization (zebrafish embryos; from 3 hpf): 2 µM
Cc1c(C)c2c(c(C)c1OCc1ccccc1)CCC(C)(C(=O)NN=C1C(=O)Nc3ccc(F)cc31)O2 (centres unmarked)  minimal effective dose (seizure protection; male CF-1 mice; intraperitoneal, 4 h, added: pentylenetetrazole 60 mg/kg subcutaneous): 300 mg/kg
Oc1cc2c(cc1O)C(c1ccccc1)CNCC2 (centres unmarked)  cognitive performance recovery (T-maze alternation; CD-1 mouse, male; sc, 2 mg/kg, added: MK-801 0.075 mg/kg sc): 57%
Cc1c(C)c2c(c(C)c1O)CCC(C)(C(=O)NN=C1C(=O)Nc3ccc(Cl)cc31)O2 (centres unmarked)  minimal effective dose (seizure protection; male CF-1 mice; intraperitoneal, 4 h, added: maximal electroshock): 30 mg/kg
Cc1ccc(N(O)N=Nc2ccc(S(=O)(=O)Nc3onc(C)c3C)cc2)cc1  inhibition (paw oedema; rat, carrageenan oedema; oral, 100 mg/kg, 2 h after carrageenan; baseline: vehicle): 45.4%
GLFHDQAGPPAGYEF  inhibition of RANTES release (ELISA or Luminex; peptide, mouse peritoneal macrophages, C57BL/6 mouse; optimal dose within 0.1 pM to 100 nM, 1 h pretreatment, 15 h stimulation, added: LPS 100 ng/mL + IFN-γ 20 ng/mL; baseline: LPS/IFN-γ stimulated control): 0%
insulin aspart  time to GIRmax (euglycaemic glucose clamp; Japanese type 1 diabetes patients; subcutaneous, 0.2 U/kg): 138 min
CS(=O)(=O)N1CCc2c(-c3cnc(N)nc3)nc(N3CCOCC3)nc21  time on treatment (human; 72 mg twice daily): 6 cycles
Nc1nnc(-c2cccc(Cl)c2Cl)c(N)n1  GTCS progressing to tonic hindlimb extension (Scn1a+/- mice; oral in chow, dose not given, spontaneous seizures, subchronic; baseline: untreated): decreased
Cc1ccc(-c2nn(-c3ccccc3)cc2C=NNC2=NC(=O)C(=C3c4ccccc4-c4nc5cc(F)ccc5nc43)S2)cc1  blood glucose (mice with STZ-induced diabetes; oral, 25 mg/kg, 288 h, day 12): 252 ± 60.8 mg/dL
COCCc1ccc(OCC(O)CNC(C)C)cc1 (centres unmarked)  lipid peroxide level (rats, adrenaline arrhythmia, plasma; intragastric, 2.57 g/kg daily, 14 days): 743 ± 18.5 nmol/L
COc1ccc(Cl)cc1C(=O)NCCc1ccc(S(=O)(=O)NC(=O)NC2CCCCC2)cc1  TBARS (STZ-induced diabetic rat, liver; oral, 0.5 mg/kg, day 28): 2.56 ± 0.69 nmol MDA/mg protein
O=C1NC(=O)C(c2ccccc2)(c2ccccc2)N1  minimal effective dose (seizure protection; male CF-1 mice; intraperitoneal, 4 h, added: maximal electroshock): 30 mg/kg
insulin  18F-FDG SUV slope (PET imaging; CD IGS rat, gastrocnemius both sides; intravenous, 0.0041-0.0083 IU/kg, 20 to 60 min): 0.0018 ± 0.0018
CCC(=O)N1CCC(NC(=O)Nc2ccc(OC(F)(F)F)cc2)CC1  mechanical withdrawal threshold (von Frey; Sprague-Dawley rat, streptozotocin diabetic; intraperitoneal, 3 mg/kg, 90 min): 79.4 ± 2.7 g
insulin lispro  total glucose infused (euglycemic clamp; healthy humans; subcutaneous, 10 units, 8 h): 2300 mg/kg
O=S(=O)(NCCNC/C=C/c1ccc(Br)cc1)c1cccc2cnccc12  CSF secretion rate (Sprague Dawley rats; 250 µM; baseline: own control): 71 ± 5%
Cc1c(C)c2c(c(C)c1O)CCC(C)(C(=O)NN=C1C(=O)N(C)c3cc(Cl)ccc31)O2 (centres unmarked)  minimal effective dose (seizure protection; male CF-1 mice; intraperitoneal, 4 h, added: maximal electroshock): 30 mg/kg
FC(F)(F)c1ccc(CNc2ccc(Cc3c[nH]c4ncc(Cl)cc34)cn2)cn1  spontaneous flinches (mice, prostate bone cancer; oral, in chow, 30 mg/kg/day, from day 14, days 49, 56, 63; baseline: vehicle): decreased
COc1ccc2c(c1)CC[C@H](CN(C)CC(=O)O)[C@@H]2c1ccccc1  basal dopamine level (rat, prefrontal cortex microdialysate; oral gavage, 10 mg/kg/day, 2 weeks): 0.47 ± 0.27 pg/10 µL
O=C1CSC(NN=C2c3ccccc3-c3nc4cc(F)ccc4nc32)=N1  blood glucose (mice with STZ-induced diabetes; oral, 25 mg/kg, 144 h, day 6): 543 ± 17.6 mg/dL
CCOc1ccc(Cc2cc([C@]34OC[C@](CO)(O3)[C@@H](O)[C@H](O)[C@H]4O)ccc2Cl)cc1  urinary glucose excretion (human, type 2 diabetes, moderate renal impairment; dose not given, 24 h; baseline: normal renal function median): ~42%
RALRTK  inhibition of RANTES release (ELISA or Luminex; peptide, mouse peritoneal macrophages, C57BL/6 mouse; optimal dose within 0.1 pM to 100 nM, 1 h pretreatment, 15 h stimulation, added: LPS 100 ng/mL + IFN-γ 20 ng/mL; baseline: LPS/IFN-γ stimulated control): 0%
COc1c(C)c(C)c2c(c1C)CCC(C)(C(=O)NN=C1C(=O)Nc3ccc(Br)cc31)O2 (centres unmarked)  minimal effective dose (seizure protection; male CF-1 mice; intraperitoneal, 4 h, added: maximal electroshock): > 300 mg/kg
O=C1CSC(N=C2c3ccccc3-c3nc4cc(F)ccc4nc32)=N1  blood glucose (mice with STZ-induced diabetes; oral, 25 mg/kg, 216 h, day 9): 304 ± 7.1 mg/dL
Cc1cc(-c2ccc(C(=O)[C@@H]3CCCC[C@H]3C(=O)Nc3cnn4c3C(=O)NCC4)cc2)n[nH]1  IC50 (LTB4 production, refers to: leukotriene B4; human, whole blood, ex vivo; versus trough plasma concentration, added: calcium ionophore): 5.3 nM
COc1cc(OC)c2c(=O)cc(-c3cc(C)c(OC[C@H](O)CN4CCN(C)CC4)c(C)c3)oc2c1  neutrophilic airway inflammation (histology; C57BL/6J mouse, poly(I:C) model; oral or intraperitoneal, 10 mg/kg): inhibited
COc1ccc2c(c1)c(CC(=O)O)c(C)n2C(=O)c1ccc(Cl)cc1  cytokine level (multiplex bead immunoassay, refers to: TNF-α; CD-1 mice, serum; ip, 20 mg/kg, three-injection regimen, added: LPS 3 mg/kg): 116 ± 87.2 pg/mL
Cc1c(C)c2c(c(C)c1OCc1ccccc1)CCC(C)(C(=O)NN=C1C(=O)Nc3ccccc31)O2 (centres unmarked)  minimal effective dose (seizure protection; male CF-1 mice; intraperitoneal, 4 h, added: pentylenetetrazole 60 mg/kg subcutaneous): 30 mg/kg
enoxaparin  aPTT AUEC(0-48) increase (human subjects, plasma; dose not given, added: dabigatran etexilate 220 mg; baseline: dabigatran etexilate alone): ~14%
SIYNFEKL  IL-2+ IFN-γ+ cells (flow cytometry, refers to: CD44hi CD8+ T cells; peptide, OT-I CD8+ T cells, mouse; dose not given, primed 5 days, TGF-β1 from day 2 onward, added: 20 ng/mL TGF-β1): 12.9%
NCCCC[C@@H]1NC(=O)[C@@H](Cc2c[nH]c3ccccc23)NC(=O)[C@H](c2ccccc2)NC(=O)[C@@H]2C[C@@H](OC(=O)NCCN)CN2C(=O)[C@H](Cc2ccccc2)NC(=O)[C@H](Cc2ccc(OCc3ccccc3)cc2)NC1=O  GH AUC(0-2h) change (GHRH-stimulated GH secretion; healthy human volunteers; subcutaneous, 1200 µg, added: GHRH 1 µg/kg; baseline: pre-dose baseline): -95.7%
CCOC(=O)c1sc(NN=C2c3ccccc3-c3nc4cc(F)ccc4nc32)nc1C  blood glucose (mice with STZ-induced diabetes; oral, 25 mg/kg, 288 h, day 12): 355 ± 18.4 mg/dL
Cc1c(C)c2c(c(C)c1O)CCC(C)(C(=O)NN=C1C(=O)Nc3ccc(Br)cc31)O2 (centres unmarked)  minimal effective dose (seizure protection; male CF-1 mice; intraperitoneal, 0.5 h, added: pentylenetetrazole 60 mg/kg subcutaneous): 30 mg/kg
C[C@H]1[C@H]2N(C(=O)CN(C)N2C(=O)NCc2ccccc2)[C@@H](Cc2ccc(OP(=O)(O)O)cc2)C(=O)N1Cc1cccc2cccnc12  patients with decreased liver stiffness (FibroScan; human, advanced primary biliary cholangitis; concentration not given, 12 weeks; baseline: baseline): 20%
B1 (UGT1A9)  Vmax (O=c1cc(-c2ccccc2)oc2cccc(O)c12; steady-state kinetics; pH 7.4, 37 °C): 0.000118 µmol/min/mg
Cc1c(C)c2c(c(C)c1O)CCC(C)(C(=O)NN=C1C(=O)Nc3ccc(F)cc31)O2 (centres unmarked)  minimal effective dose (seizure protection; male CF-1 mice; intraperitoneal, 0.5 h, added: maximal electroshock): > 300 mg/kg
CN(O)N=Nc1ccc(S(=O)(=O)Nc2nccs2)cc1  inhibition (paw oedema; rat, carrageenan oedema; oral, 100 mg/kg, 2 h after carrageenan; baseline: vehicle): 44.9%
Cc1c2ccccc2cc2ccc3ccccc3c12  minimal protective dose (adrenal haemorrhage prevention; rat; oral, added: 7,12-DMBA 5 mg i.v.): 1 mg
CS/C(S)=N/CCCC[S+](C)[O-] (racemic)  mRNA fold change (RT-PCR, refers to: Chst1; rat, liver; oral gavage, 200 mg/kg, 96 h, dosed for four days; baseline: vehicle): 0.546
SIIVFEKL  IL-2+ TNF-α+ cells (flow cytometry, refers to: CD44hi CD8+ T cells; peptide, OT-I CD8+ T cells, mouse; dose not given, primed 5 days, TGF-β1 from day 2 onward, added: 20 ng/mL TGF-β1): 5.22%
CCCN(O)N=Nc1ccc(S(=O)(=O)Nc2nccs2)cc1  inhibition (paw oedema; rat, carrageenan oedema; oral, 100 mg/kg, 4 h after carrageenan; baseline: vehicle): 82.3%
Cc1cc(C)c(CNC(=O)c2cc(Cl)c3c(c2C)O[C@@](C)([C@H]2CC[C@H](N(C)C)CC2)O3)c(=O)[nH]1  objective response rate (patients with relapsed/refractory ATL; 200 mg once daily, skin lesions): 42.9%
COc1cc(OC)c(OC)cc1/C=C(\C(=O)c1cc(C)[nH]c(=O)c1C(=O)N1CCCCC1)c1cc(OC)c(OC)cc1OC  IC50 (cell proliferation, MTT; 35404 melanoma brain metastasis, human patient-derived; 72 h, tested up to 10 µM): > 10000 nM
CCCCCCCCCCCCCCCC(=O)OCC(=O)[C@@]12OC(CCC)O[C@@H]1C[C@H]1[C@@H]3CCC4=CC(=O)C=C[C@]4(C)[C@H]3[C@@H](O)C[C@@]12C (some centres unmarked)  AUC(2-58 h) fold change (refers to: human FGF21 protein; CD-1 mouse, plasma; subcutaneous, 0.3 mg/kg mRNA, MC3 LNP with hFGF21 mRNA, steroid/mRNA 2:3; baseline: LNP without steroid): 3 fold
O=C1N=C(NN=C2C(=O)Nc3ccccc32)SC1=C1c2ccccc2-c2nc3cc(F)ccc3nc21  blood glucose (mice with STZ-induced diabetes; oral, 25 mg/kg, 144 h, day 6): 240 ± 54.2 mg/dL
Cc1ccc(C(=O)NC2CC2)cc1-n1ncc(C(=O)c2cccc(C#N)c2)c1N  IC50 (LPS-induced TNFα secretion, inhibitor; healthy human, peripheral blood ex vivo; unbound, fraction unbound 0.15): 17 nM
CC(C)C[C@H](NC(=O)[C@H](CO)NC(=O)[C@H](CCCNC(=N)N)NC(=O)[C@H](CC(=O)O)NC(=O)[C@H](CCC(=O)O)NC(=O)[C@H](C)NC(=O)[C@@H]1CCCN1C(=O)[C@H](C)NC(=O)[C@H](CCC(=O)O)NC(=O)[C@@H]1CCCN1C(=O)[C@@H]1CCCN1)C(N)=O  HVA level (HPLC-EC; F344 rat, normal, striatum; intranasal, 300 µg, 5 days/week for 3 weeks): 843 ± 63 ng/g

A few entries again:
Cc1cc(-c2ccc(C(=O)[C@@H]3CCCC[C@H]3C(=O)Nc3cnn4c3C(=O)NCC4)cc2)n[nH]1  IC50 (LTB4 production, refers to: leukotriene B4; human, whole blood, ex vivo; versus trough plasma concentration, added: calcium ionophore): 5.3 nM
COc1cc(OC)c2c(=O)cc(-c3cc(C)c(OC[C@H](O)CN4CCN(C)CC4)c(C)c3)oc2c1  neutrophilic airway inflammation (histology; C57BL/6J mouse, poly(I:C) model; oral or intraperitoneal, 10 mg/kg): inhibited
Cc1ccc(C(=O)NC2CC2)cc1-n1ncc(C(=O)c2cccc(C#N)c2)c1N  IC50 (LPS-induced TNFα secretion, inhibitor; healthy human, peripheral blood ex vivo; unbound, fraction unbound 0.15): 17 nM
insulin lispro  total glucose infused (euglycemic clamp; healthy humans; subcutaneous, 10 units, 8 h): 2300 mg/kg
c1cc(-c2cnn3cc(-c4ccc(OCCN5CCCCC5)cc4)cnc23)ccn1  EC100 dorsalization (zebrafish embryos; from 3 hpf): 2 µM
Cc1c(C)c2c(c(C)c1OCc1ccccc1)CCC(C)(C(=O)NN=C1C(=O)Nc3ccc(F)cc31)O2 (centres unmarked)  minimal effective dose (seizure protection; male CF-1 mice; intraperitoneal, 4 h, added: pentylenetetrazole 60 mg/kg subcutaneous): 300 mg/kg
CCOc1ccc(Cc2cc([C@]34OC[C@](CO)(O3)[C@@H](O)[C@H](O)[C@H]4O)ccc2Cl)cc1  urinary glucose excretion (human, type 2 diabetes, moderate renal impairment; dose not given, 24 h; baseline: normal renal function median): ~42%
CCCN(O)N=Nc1ccc(S(=O)(=O)Nc2nccs2)cc1  inhibition (paw oedema; rat, carrageenan oedema; oral, 100 mg/kg, 4 h after carrageenan; baseline: vehicle): 82.3%
